Assay results of several laboratories.
Each numbered part is a random draw from the data of one study; scales do not carry over between parts.

Series 1 — technique: RNA Bind-n-Seq; molecule type: RNA; sample: in vitro; concentration: 365 nM; reference: no-protein control; reading: higher = stronger binding; measurement: RBNS enrichment (R)
Target: RNA binding protein fox-1 homolog 2, RRM domain, GST-SBP tag (RBFOX2, Homo sapiens, UniProt O43251-10, residues 100-194)
Setting: natural RNA segment, single round, ends assumed
Shared flanks, not repeated: GGGAGUUCUACAGUCCGACGAUC … UGGAAUUCUCGGGUGCCAA
Construct (chain): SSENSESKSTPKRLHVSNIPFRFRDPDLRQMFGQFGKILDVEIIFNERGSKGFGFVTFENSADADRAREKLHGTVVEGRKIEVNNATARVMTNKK
GUCAAAGGAAAUCCCUUUCUUGGUGACGACUUAAAUCUGGGUUCCCUCAGACAUUGGGUUGCACCCCAACAAAUAUUAAAUGGCUUCUUCUUAAAGCCCAGAGAAAGAGG: 0.736
UCCCUCCAUCUGGUCCCUGCCCCUCAGCCAGCGGAGGAGCCCGCUGGGCCCUUCCCUGCCCGUCCCCGCUCCUCCCUGGCCCCCGCACAGGUAAGUGAGGGUGAGGGGGG: 0.178
GACGUCACAUUUCUCGGCCUCCGACAUUAUGACAUUCUGCAUCCUGGUGCCUGAAGGAAACUCUGGGAAAUUGUACACUAACAGGGAGUUGAACCAUGAAGCUCUUCGUC: 0.386
CUUUGAUAGAUCUCUGCCGGGGUCCUCAUGUUAGACACACGGGCAAAAUUAAGGCUUUAAAAAUACACAAAGAUUCCUCCACGUACUGGGAAGGCAAAGCAGAUAUGGAG: 0.389
GUUUUUUCUUUAAGGCUUUUUUGCCUUGUGCCACUGUUGCUCCUUGGUUUCCCUUGCGUAAUUGAUAAGCCCAGUUAUUCAGUAAUGUUUACAAAUUAAUUGACUUUGAU: 0.546
UACUUCCAGGCUGCAAGGUUUUGAAAUUUUCUGUACAGUUUGUGAGGACAUUUGCACUUUGCCACUCAAUGUCGUACCUCGGUUCACUGUUUGUUUUUGAAUGCCCUGUU: 1.15
AAGUCACAAAUUUGGUGUCUUUUCACCUUUUGACUGUUGACUUAAUAGCUCCUCUCACUCUGCCUGGAGAUACUUCCUGCCUCAGAUGAGGAGCCAGAAGAAACAGAGCC: 0.238
CUUUCCGUCUGCGACCUCACUCACAGGACUUGAGUAUUUCCGACCUCACGGGUCACCCCAGCCCUCUGCAAAGCCUUGCCGUGCUAUGUUUCAGGUUCACGUUCAGCUCU: 0.431
AUUUUACUCUUCAUUUCAGGGUUUUCUUUUUUUUUUUACCUUCAAAGGUAGACAUUUUGGGAAUCAUAACUGUAUUACUAAACGUGUUUAAUCAAAAUUCAUAGUUGGAU: 0.215
GACCGCCCUCAGCCCGUUGGAAGCUUGGUUUAGAGGACUUGUUGGGCUCAUUUUGGUUUUAUUGAAAUGCCAUCUAAAUAUGUUAGCUGUAGAUAGGAGGUGCUUCUGGU: 2.61
GAUUUGCUAAAUGUGGUCUUUGCCAACUAAAAUCUGAGAUGCAGCUUUAGACCCUGACACGUGGAUGUUCUUCUGCAGUCUUGUCUGCUAAGUUUUAAAUAAAGUCAUGA: 0.444
AAGAAUGUCGCCAAGGAAGAAACCUCACGCCAUGCUGUAGUGUUUCCUGUAAUCACACGAGCACAUUUAUAUAUGCAGUUUCCCAUGGAUAGGCGUGUGACCCUGGUUGA: 0.295

Series 2 — technique: RNA Bind-n-Seq; molecule type: RNA; sample: in vitro; concentration: 200 nM; setting: whole 134-nt RNA, ends assumed; added: 150 mM KCl; reference: input library; reading: higher = stronger binding; measurement: log2 enrichment
Target: Ras GTPase-activating protein-binding protein 1, full length (G3BP1, Homo sapiens, UniProt Q13283)
Chain of UniProt Q13283 (whole entry, looked up): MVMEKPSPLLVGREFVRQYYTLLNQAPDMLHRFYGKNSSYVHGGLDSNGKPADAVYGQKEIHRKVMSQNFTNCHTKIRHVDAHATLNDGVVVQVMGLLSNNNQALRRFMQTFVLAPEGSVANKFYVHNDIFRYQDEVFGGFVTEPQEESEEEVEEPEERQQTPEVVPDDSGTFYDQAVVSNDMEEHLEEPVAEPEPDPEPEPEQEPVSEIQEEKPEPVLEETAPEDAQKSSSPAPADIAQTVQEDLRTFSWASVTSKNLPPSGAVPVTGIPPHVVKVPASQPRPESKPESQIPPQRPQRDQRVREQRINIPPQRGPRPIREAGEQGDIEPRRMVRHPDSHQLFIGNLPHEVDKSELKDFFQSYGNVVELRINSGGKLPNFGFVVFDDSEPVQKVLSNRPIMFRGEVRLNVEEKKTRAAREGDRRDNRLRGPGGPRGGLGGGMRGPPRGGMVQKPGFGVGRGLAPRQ
Shared flanks, not repeated: GGGAGUUCUACAGUCCGACGAUC … UGGAAUUCUCGGGUGUCAAGG
AAGUCCUGUGCUACACAUCGUAUGUACCGAAUCGGGGUUUGGGGUUUGGGUUUGGGAAAGUAUUAUGUUACGCCGUUCGGAUCUGCACUU: 0.267
CACAGACAACACGCACUCACACAGACACAGAGGGAAGGGGUUGGGAUGGGGACAGGGUGCACAGCAGGGCGGGGUAGGACCCCAGCCCCU: 1.32
CACAGACAACACGCACCCACACGGACACAGAGGGAAGGGGUUGGGAUGGGGACAGGGUGCACAGCAGGGCGGGGUAGGACCCCAGCCCCU: 1.83
CUCAAGUCCUGUGCUACACAUCGUAUGUACCGAAUCGGAAAGGAAAAAGGUGGAAAGUAUUAUGUUACGCCGUUCGGAUCUGCACUUCCA: -0.528
UGGGAGGUGGAUUUUGUUUAUUUUUUUAGCUCAUUUCCAGGGGUGGGAAUUUUUUUUUAAUAUGUAUCAUGAAUAAAGUUGUUUUUGAAA: -0.00157
CAAGUCCUGUGCUACACAUCGUAUGUACCGAAUCGGGAGGGUUUUUUUGGGUGGGAAAGUAUUAUGUUACGCCGUUCGGAUCUGCACUUC: 0.371
CCUCAAGUCCUGUGCUACACAUCGUAUGUACCGAAUCGGUGGUUUUUGGUGGAAAGUAUUAUGUUACGCCGUUCGGAUCUGCACUUCCAG: -0.129
AGUCCUGUGCUACACAUCGUAUGUACCGAAUCGGGGAAAAAGGGGAAAGGGGAGGGGAAAGUAUUAUGUUACGCCGUUCGGAUCUGCACU: 0.0361
UGGGAGGUGGAUUUUGUUUAUUUUUUUAGCUCAUUUCCAGGGGUGGGAAUUUUUUUUUAAUAUGUGUCAUAAAUAAAGUUGUUUUUGAAA: 0.151
UCAAGUCCUGUGCUACACAUCGUAUGUACCGAAUCGGGCCGGGGCCGGGCCGGGGAAAGUAUUAUGUUACGCCGUUCGGAUCUGCACUUC: 0.275
UGGCCCUGGUGGCAUGCGGGGAGUAAGAGGUGGCCUCAUGGAUCGUGGUGGUCCCGGUGGAAUGUUCAGAGGUGGCCGUGGUGGAGACAG: 0.192
AAGUCCUGUGCUACACAUCGUAUGUACCGAAUCGGGUUUUGGUUUUGGGUUUUGGGGAAAGUAUUAUGUUACGCCGUUCGGAUCUGCACU: -0.711
CUCAAGUCCUGUGCUACACAUCGUAUGUACCGAAUCGGUUUGGUGGUUUUUGGAAAGUAUUAUGUUACGCCGUUCGGAUCUGCACUUCCA: -0.285
CCACCAUGACCCCUGACGGUCUGGCUGUGACCCCAACGCCGGUGCCCGUGGUCGGGAGCCAGAUGACCAGACAAGCCCGGCGCCUCUACG: 0.773

Series 3 — technique: protein binding microarray; molecule type: double-stranded DNA, one strand shown; sample: in vitro; concentration: not given; reference: not given; reading: higher = stronger binding; measurement: E-score
Target: Histone acetyltransferase KAT6A, both winged helices, GST fusion (KAT6A, Homo sapiens, UniProt Q92794, residues 1-181)
Setting: 8-mer, flanks averaged, mean of 2 arrays, mostly near background
Residues (chain): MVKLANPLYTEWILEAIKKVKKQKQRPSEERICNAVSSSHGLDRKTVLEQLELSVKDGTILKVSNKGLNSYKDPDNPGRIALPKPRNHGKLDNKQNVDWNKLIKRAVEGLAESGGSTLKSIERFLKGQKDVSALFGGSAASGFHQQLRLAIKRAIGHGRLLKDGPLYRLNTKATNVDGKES
CATTTACG: 0.0689
ACCGTTAT: 0.0853
CCCTTAAA: -0.225
AAGCGTTG: 0.0789
ACAAGCGT: 0.00161
ACCTTCGG: -0.0982
GTATCGCA: 0.0786
AAAAACCA: -0.0114
AAGCTACG: -0.0185
CAGTAAGC: -0.107
CAGGTAAG: -0.164
AGTAGTAA: -0.0498
TAAAGTTA: -0.0202
CCTAAGTC: -0.178
CTAGAACC: -0.0465
GAAACTCC: -0.0109
AACCGGCG: 0.29
CGGCTCAC: 0.16
CTTAGAAA: 0.0188
CAAACCAG: -0.2
AGCGTTAC: 0.0191
CTTCGTCC: 0.0323
CTCCTTGC: -0.192
GCCAAAGA: -0.0926
AATGTTGG: -0.0653

Series 4 — technique: aptamer microarray, sandwich; molecule type: DNA with 2'F-ANA; sample: in vitro; concentration: 200 nM; added: Cy3 exosite-II aptamer, 400 nM; reading: higher = stronger binding; measurement: mean fluorescence intensity; strand: GGTTGGTGTGGTTGG
Target: Prothrombin, mature alpha-thrombin (F2, Homo sapiens, UniProt P00734)
Setting: whole 15-mer aptamer, many near background
2'F-ANA at 2 5 7 8 10 11 12 14 15: 45.5 a.u.
2'F-ANA at 2 3 4 6 7 9 11 14: 236 a.u.
2'F-ANA at 1 4 6 7 9 11 13 14 15: 72.3 a.u.
2'F-ANA at 1 4 6 9 10 11 13 15: 48.3 a.u.
2'F-ANA at 4 5 8 9 10 13: 43.8 a.u.
2'F-ANA at 2 3 4 7 8 9: 738 a.u.
2'F-ANA at 1 2 3 5 6 10 15: 48.8 a.u.
2'F-ANA at 2 3 6 7 8 10 14 15: 266 a.u.
2'F-ANA at 1 3 7 12 13 14 15: 129 a.u.
2'F-ANA at 1 2 6 8 10 11 14 15: 89.3 a.u.
2'F-ANA at 3 4 6 7 10 11 13 15: 194 a.u.
2'F-ANA at 2 3 4 9 13 14: 251 a.u.
2'F-ANA at 2 5 8 9 10 12 13 14 15: 46.5 a.u.
2'F-ANA at 2 4 5 6 8 11 13: 125 a.u.
2'F-ANA at 3 5 7 12 14: 63.7 a.u.
2'F-ANA at 2 3 7 9 10 11 12 13: 401 a.u.
2'F-ANA at 3 4 7 8 10 12 13: 299 a.u.
2'F-ANA at 4 5 7 8 9 11 12 14 15: 48.1 a.u.

Series 5 — technique: universal PBM; molecule type: double-stranded DNA, one strand shown; sample: in vitro; concentration: not given; reading: higher = stronger binding; measurement: E-score
Target: Sal-like protein 4, full length isoform B (SALL4, Homo sapiens, UniProt Q9UJQ4-2, residues 1-616)
Setting: 8-mer, flanks averaged, mean of replicates
GAATTATC: 0.268
ATGACAAA: 0.23
ACCATCTA: 0.0104
ACTGGCCT: -0.122
GACGCTAC: -0.129
AACTGCCT: 0.057
ATTTACCG: 0.0861
ACGCCGCG: -0.224
ACGCAACT: -0.0944
ACGCGAAA: 0.0357
CTAGAATC: -0.0647
ACGCATTG: 0.0166
GCCGGACA: -0.246
AGATGTAG: -0.0595
GTGTAGGA: 0.0525
ATGTCGGG: -0.0901
CTACAGTC: -0.107
TATAAGCA: 0.291
CTACTAAA: 0.19

For quick reference, copied from above (series 4):
2'F-ANA at 2 5 7 8 10 11 12 14 15: 45.5 a.u.
2'F-ANA at 2 3 4 9 13 14: 251 a.u.
2'F-ANA at 2 5 8 9 10 12 13 14 15: 46.5 a.u.
2'F-ANA at 4 5 7 8 9 11 12 14 15: 48.1 a.u.
2'F-ANA at 2 3 6 7 8 10 14 15: 266 a.u.
2'F-ANA at 2 3 4 7 8 9: 738 a.u.
2'F-ANA at 3 4 7 8 10 12 13: 299 a.u.
2'F-ANA at 1 2 6 8 10 11 14 15: 89.3 a.u.
2'F-ANA at 3 4 6 7 10 11 13 15: 194 a.u.
